# Measurements from different studies.
# Each line is one published result; not all experiments were run side by side. “And” joins repeats or separate records; there may be more than shown. ± gives the spread as reported.
SMILES,target or system,assay,conditions,how to read,quantity,value
COc1cc2c(cc1O)C(Cc1ccc(O)c(-c3c(O)c(OC)cc4c3C(Cc3ccc(O)cc3)N(C)CC4)c1)N(C)CC2 (stereo not shown),3T3-L1,"adipocyte lipid accumulation, Nile Red staining",10 µM,,inhibition,2.3 ± 0.8%
CC#CC(=O)N1CCC[C@H]1c1nc(-c2ccc(C(=O)Nc3ccccn3)cc2)c2c(N)nccn12,TMD8 RAC2 knockout,"calcium flux, FLIPR","concentration not given, 1 h preincubation",,inhibition,96.6%
COc1ccc(Cc2ccnc3ccccc23)cc1OC,A549,"mitochondrial oxygen consumption, Seahorse XF96",10 µM,,inhibition,43%
NC1CCCNC1=O (stereo not shown),,"binding, equilibrium dialysis LC-MS","5 µM, thermostabilized A2AR-BRIL construct","baseline: no-protein control, direction not given",z-scored log2 fold change,0.236
COc1ccc(Cc2ncnc3ccccc23)cc1OC,A549,"mitochondrial oxygen consumption, Seahorse XF96",10 µM,,inhibition,16%
Cc1nn(-c2nc3c(F)cc(F)cc3s2)c(O)c1C(c1ccc(C(F)(F)F)cc1)c1c(C)nn(-c2nc3c(F)cc(F)cc3s2)c1O,RAW-ISG,IFN luciferase reporter,"40 µM, together with: HT-DNA",,inhibition,101%
C=CC(=O)N1CCC[C@@H](c2ccc(C(N)=O)c3[nH]ccc23)C1,TMD8 RAC2 knockout,"calcium flux, FLIPR","concentration not given, 4 h preincubation",,inhibition,73.4%
COc1cc2c(cc1OC)[C@@H](Cc1ccc(O)c(Oc3cc4c(cc3OC)CCN(C)[C@@H]4Cc3ccc(O)cc3)c1)N(C)CC2,3T3-L1,"adipocyte lipid accumulation, Nile Red staining",10 µM,,inhibition,25.9 ± 0.9%
COc1cc2ccnc(Cc3cccc4ccccc34)c2cc1OC,A549,"mitochondrial oxygen consumption, Seahorse XF96",10 µM,,inhibition,59%
C=CC(=O)Nc1cccc(Oc2nc(Nc3ccc(N4CCN(C)CC4)cc3)nc3ccoc23)c1,TMD8 RAC2 knockout,"calcium flux, FLIPR","concentration not given, 1 h preincubation",,inhibition,82.1%
COc1cc2c(cc1O)[C@@H](Cc1ccc(O)c(Oc3cc4c(cc3OC)CCN(C)[C@@H]4Cc3ccc(O)cc3)c1)N(C)CC2,3T3-L1,"adipocyte lipid accumulation, Nile Red staining",5 µM,,inhibition,20 ± 0.8%
C=CC(=O)N1CCC[C@@H](n2nc(-c3ccc(Oc4ccccc4)cc3)c3c(N)ncnc32)C1,TMD8 RAC2 knockout,"calcium flux, FLIPR","concentration not given, 1 h preincubation",,inhibition,101%
CC(C)=CC(=O)O,,"binding, equilibrium dialysis LC-MS","5 µM, thermostabilized A2AR-BRIL construct","baseline: no-protein control, direction not given",z-scored log2 fold change,-0.131
COc1ccc(C[C@@H]2c3cc(Oc4cc(C[C@@H]5c6cc(O)c(OC)cc6CCN5C)ccc4O)c(OC)cc3CCN2C)cc1,3T3-L1,"adipocyte lipid accumulation, Nile Red staining",10 µM,,inhibition,38.2 ± 0.6%
COc1cc2ncnc(C(=O)c3cccc4ccccc34)c2cc1OC,A549,"mitochondrial oxygen consumption, Seahorse XF96",10 µM,,inhibition,22%
C=C(c1ccc(O)c(Oc2cc3c(cc2OC)CCN(C)[C@@H]3Cc2ccc(OC)cc2)c1)[C@@H]1c2cc(OC)c(OC)cc2CCN1C,3T3-L1,"adipocyte lipid accumulation, Nile Red staining",10 µM,,inhibition,29.3 ± 1%
Cn1cc(-c2ccc(-c3cncc(Cl)c3N3CCC4(CCNC4=O)CC3)cc2)cn1,COLO 205,"microarray, item: BCL2L1","concentration not given, 2 h, gene set Bcl-XL",baseline: untreated cells,fold change in expression,2.24
COc1ccc2nccc(Cc3cccc(-c4ccc(CO)cc4)c3)c2c1,A549,"mitochondrial oxygen consumption, Seahorse XF96",10 µM,,inhibition,94%
COc1ccc(C[C@@H]2c3cc(Oc4cc(/C=C5\CN(C)CCc6cc(OC)c(OC)cc65)ccc4O)c(OC)cc3CCN2C)cc1,3T3-L1,"adipocyte lipid accumulation, Nile Red staining",5 µM,,inhibition,18.1 ± 2.6%
COc1ccc2nccc(Cc3ccc(OC)c(OC)c3)c2c1,A549,"mitochondrial oxygen consumption, Seahorse XF96",10 µM,,inhibition,33%
Cc1cc(-c2nc(-c3ccc(OC(F)(F)F)cc3)no2)nn1Cc1ccnc(N2CCN(C3CC3)CC2)c1,H460,"cell proliferation, Incucyte confluence",0.001 µM,baseline: vehicle,inhibition,> 50%
C=C(c1ccc(OC)cc1)[C@@H]1c2cc(Oc3cc(C[C@H]4c5cc(OC)c(OC)cc5CCN4C)ccc3O)c(OC)cc2CCN1C,3T3-L1,"adipocyte lipid accumulation, Nile Red staining",10 µM,,inhibition,30.7 ± 1%
Cc1nn(-c2nc3ccc(Cl)c(Cl)c3[nH]2)c(O)c1C1OC(=O)c2ccccc21 (stereo not shown),RAW-ISG,IFN luciferase reporter,"5 µM, together with: HT-DNA",,inhibition,78.2% and 77.5% and 77.8% and 77.9% and 78.3%
C[C@H]1CN(C2COC2)CCN1c1ccc(Nc2cc(-c3ccnc(N4CCn5c(cc6c5CC(C)(C)C6)C4=O)c3CO)cn(C)c2=O)nc1,TMD8 RAC2 knockout,"calcium flux, FLIPR","concentration not given, 4 h preincubation",,inhibition,99%
COc1cc2ncnc(Cc3cccc(Cl)c3)c2cc1OC,A549,"mitochondrial oxygen consumption, Seahorse XF96",10 µM,,inhibition,16%
COc1ccc(C[C@@H]2c3cc(Oc4cc(C[C@@H]5c6cc(OC)c(OC)cc6CCN5C)ccc4O)c(OC)cc3CCN2C)cc1,3T3-L1,"adipocyte lipid accumulation, Nile Red staining",2.5 µM,,inhibition,14.8 ± 1%
C=CC(=O)N1CCC([C@@H]2CCNc3c(C(N)=O)c(-c4ccc(Oc5ccccc5)cc4)nn32)CC1,TMD8 RAC2 knockout,"calcium flux, FLIPR","concentration not given, 2 h preincubation",,inhibition,99.5%
COc1cc2ncnc(Cc3cccc(-c4ccc(C)cc4)c3)c2cc1OC,A549,"mitochondrial oxygen consumption, Seahorse XF96",10 µM,,inhibition,64%

# A few entries again:
SMILES,target or system,assay,conditions,how to read,quantity,value
Cc1nn(-c2nc3ccc(Cl)c(Cl)c3[nH]2)c(O)c1C1OC(=O)c2ccccc21 (stereo not shown),RAW-ISG,IFN luciferase reporter,"5 µM, together with: HT-DNA",,inhibition,78.2% and 77.5% and 77.8% and 77.9% and 78.3%
C[C@H]1CN(C2COC2)CCN1c1ccc(Nc2cc(-c3ccnc(N4CCn5c(cc6c5CC(C)(C)C6)C4=O)c3CO)cn(C)c2=O)nc1,TMD8 RAC2 knockout,"calcium flux, FLIPR","concentration not given, 4 h preincubation",,inhibition,99%
COc1cc2ncnc(Cc3cccc(Cl)c3)c2cc1OC,A549,"mitochondrial oxygen consumption, Seahorse XF96",10 µM,,inhibition,16%
